Published values collected from several papers.
Every numbered part comes from another study and shows a few of its results, in no order. Changes are numbered by the printed parent chain.

Set 1 — technique: DHFR PCA, deep sequencing; sample: yeast; together with: (+)-ABA 0.032 µM; baseline: wild-type fitted maximum; direction: higher = stronger binding; measurement: relative binding score
Target: ABI1, truncated, D143A, DHFR fusion (Arabidopsis thaliana)
Notes: methotrexate growth selection, single substitutions
Starting sequence: PYL1, truncated, DHFR fusion (Arabidopsis thaliana); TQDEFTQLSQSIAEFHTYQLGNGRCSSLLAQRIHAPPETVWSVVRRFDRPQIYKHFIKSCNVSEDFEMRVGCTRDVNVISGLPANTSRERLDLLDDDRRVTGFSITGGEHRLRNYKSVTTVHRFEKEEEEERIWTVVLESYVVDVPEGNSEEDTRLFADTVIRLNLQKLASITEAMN; partner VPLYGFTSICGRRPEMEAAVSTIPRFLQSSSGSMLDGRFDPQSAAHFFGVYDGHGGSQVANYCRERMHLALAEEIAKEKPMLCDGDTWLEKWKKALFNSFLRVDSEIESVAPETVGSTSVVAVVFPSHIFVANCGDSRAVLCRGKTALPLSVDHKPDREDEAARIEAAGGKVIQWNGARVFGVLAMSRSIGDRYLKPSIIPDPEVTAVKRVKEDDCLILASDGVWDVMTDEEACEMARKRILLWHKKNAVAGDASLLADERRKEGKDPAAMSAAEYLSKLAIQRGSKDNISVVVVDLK
S80Y: 57.4%
D96G: 1.16%
H16W: -0.835%
V121A: 5.86%
R132M: 35.3%
R49D: 1.45%
E174K: -2.82%
A30P: -5.17%
R69E: 15.4%
S42K: 15.7%
I12E: -4.17%
M176D: 4.97%
T39L: 46.1%
V137G: 1.03%
T173C: 59.7%

Set 2 — technique: protein binding microarray; form: double-stranded DNA, one strand shown; sample: in vitro; tested at: not given; baseline: not given; direction: higher = stronger binding; measurement: E-score
Target: Histone acetyltransferase KAT6A, winged helix 1, GST fusion (KAT6A, Homo sapiens, UniProt Q92794, residues 1-85)
Notes: 8-mer, flanks averaged, mean of 2 arrays, mostly near background
Residues (chain): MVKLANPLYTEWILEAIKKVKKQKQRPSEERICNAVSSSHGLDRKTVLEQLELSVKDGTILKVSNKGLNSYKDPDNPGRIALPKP
AAGTCAGT: -0.0372
CAGTGGAC: -0.14
GTAAAAAA: 0.0427
AACATACA: -0.219
CATAGTGC: 0.042
CTCGGTGC: -0.0326
CGGCAAAG: 0.233
ACGATAGC: -0.0187
GACCCTCC: 0.00957
CGTTGACA: -0.119
ACCTGTGG: -0.27
TGACGACA: -0.256
CGCTGAGC: 0.265
ACTGATCT: -0.194
GTAATATA: 0.0615
CTGTCCTC: -0.131
ACAGTTAT: -0.0717

Set 3 — technique: RNA Bind-n-Seq; form: RNA; sample: in vitro; tested at: 365 nM; baseline: no-protein control; direction: higher = stronger binding; measurement: RBNS enrichment (R)
Target: RNA binding protein fox-1 homolog 2, RRM domain, GST-SBP tag (RBFOX2, Homo sapiens, UniProt O43251-10, residues 100-194)
Notes: natural RNA segment, single round, ends assumed
Target sequence (chain): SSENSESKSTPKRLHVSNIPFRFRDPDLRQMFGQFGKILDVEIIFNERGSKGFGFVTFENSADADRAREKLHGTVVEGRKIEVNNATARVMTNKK
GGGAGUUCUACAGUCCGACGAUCGUUCAUGUUGGUAUAGAAAUGUCUUUUAAAUCCUAUUGUUGAGCAAGAUCUGCUCUCUGUCUAUGGUAUUACACAGGGAAAGCUGUGACUGCAGGAUCAGUCUCAUUCUUUGGAAUUCUCGGGUGCCAA: 0.426
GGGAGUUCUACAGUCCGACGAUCUGACUCACAGCCCAUGCUGUCAUCUGUGGCACAAGUGGGUGUGAGUACGUCCUGCAUGCACUAACGGUGCAGAACAUGGCAUGGUGACUAGAAAGUAAAACUCCUUUUGAUGGAAUUCUCGGGUGCCAA: 0.52
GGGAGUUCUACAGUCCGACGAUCGGAGGCUCCCACCCACCUCUCCCAAGAGCAGACAUUAAACAUCUUUGUGCUUUGAAGAGAGUGAAUUUUGGAUAGUCUUGUGAUUCUCAGACUAACUUCCAGAAUUAUACUGGAAUUCUCGGGUGCCAA: 0.316
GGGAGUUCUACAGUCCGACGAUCCCCCUGUGUGCAUUAGGAACCCUUCUCUCCUCUGAGAAAGCUCAGAGGGAGCACUGCCUCACAAACUGUGAGACUGCGUUUUUUAUACUUGGAAGUGGUGAAUUAUUUUAUGGAAUUCUCGGGUGCCAA: 0.557
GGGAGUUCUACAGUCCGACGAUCCGCACAGAUAAGUCCAGAAAGCCAGGGAGUAUGAGUCCCCAGGUCGCCAGGGCAUAACCAAAUAGAAAUAGUCAGUGGUGUGGAAAUCCGAUGUAAGAUGUAAUAGAUAAUGGAAUUCUCGGGUGCCAA: 1.11
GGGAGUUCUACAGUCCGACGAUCGUUAGGGAUGCUAAGAAGAGCCCACAAAUAGAGGAUUACUCUUCCCCUGAAUCUCUAAACUCAGAAACAAUUACCAAAAAAUACAUAACUCUUCCUUGUAGGGCCCUUUCUGGAAUUCUCGGGUGCCAA: 0.813
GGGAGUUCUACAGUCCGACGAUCGUAGUGGCUGUGCUAUACCCAGCAUCAUGCUUAACAGCGUGUUGCCCUUCUGAGCCUGUUGUACUCACUGAUCUCUUUAAAAACAAAAAAUAGCUCUUGUAAAAGGUCACUGGAAUUCUCGGGUGCCAA: 0.538
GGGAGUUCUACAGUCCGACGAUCAGGAUUCAUGAUUUCUGAUACUGCUGAUCAAAAAUGCGCGCAAAUAAAGAAUGUUGGUCAAUACUGGUAUGAAGACUCUUGGCCUUUCAGAAUGAAACCCCAGAUUCCUGUGGAAUUCUCGGGUGCCAA: 1.88

Set 4 — technique: protein-binding microarray; form: double-stranded DNA, one strand shown; sample: in vitro; tested at: 2200 nM top; notes: 60-bp whole probe; together with: salmon DNA 0.4 mg/ml; baseline: random background probes; direction: higher = stronger binding; measurement: fitted relative affinity; shared flanks, not repeated: GCCTAGCAC … GTCTTGATTCGCTTGACGCTGCTG
Target: Interferon regulatory factor 7, full length, phosphomimetic (IRF7, Homo sapiens, UniProt Q92985, residues 1-503, S471D/S472D/S475D/S476D/S477D/S483D/S484D/S487D)
Sequence of UniProt Q92985 (whole entry, unmodified, looked up): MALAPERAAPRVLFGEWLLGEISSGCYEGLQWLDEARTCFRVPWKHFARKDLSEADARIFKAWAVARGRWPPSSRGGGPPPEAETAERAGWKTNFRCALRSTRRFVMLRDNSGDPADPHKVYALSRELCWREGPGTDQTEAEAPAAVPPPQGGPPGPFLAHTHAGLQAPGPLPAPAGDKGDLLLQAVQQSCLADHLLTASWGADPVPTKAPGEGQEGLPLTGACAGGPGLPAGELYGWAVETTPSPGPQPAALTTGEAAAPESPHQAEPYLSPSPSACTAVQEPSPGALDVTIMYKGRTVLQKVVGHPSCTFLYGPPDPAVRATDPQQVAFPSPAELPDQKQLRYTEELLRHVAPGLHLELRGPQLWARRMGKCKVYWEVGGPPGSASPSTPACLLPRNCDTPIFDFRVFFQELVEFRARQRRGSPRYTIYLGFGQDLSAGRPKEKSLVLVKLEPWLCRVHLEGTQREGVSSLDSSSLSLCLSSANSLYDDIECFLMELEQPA
GACGAATTACCTCTGGAGCAGTGCTAG: -0.369 z-score
TCTTTTATGGTATTTTTTTGGTGCTAG: 1.27 z-score
GACAGTTTCGGACTGGGGACGTGCTAG: 4.5 z-score
TTAGGACTACTACTGCTTTAGTGCTAG: 0.222 z-score
GACGGCCTGGACTATCGGGACGTGCTA: -1.11 z-score
TTGTTTTTCATTATTGTCTCGTGCTAG: 2.74 z-score
TCGTTTCCCAAGTTTATACCTGTGCTA: 4.42 z-score
CTGTTTCTACTGTCTGTTTCCGTGCTA: 3.84 z-score
TCATCTTTATGTACTCTCACTGTGCTA: 1.52 z-score
GGGAAAATGGCTTTGCAGATGTGCTAG: -0.594 z-score
TCACTTTTTGCACTCTCACTGTGCTAG: 2.6 z-score
TTATGTATCGGTTTCGGTTAGTGCTAG: 7.32 z-score
GACGATCCCAGTTTCGAGACGTGCTAG: 4.04 z-score
TTAGGACTGGACACTGGTTTAGTGCTA: -0.467 z-score
TCAGATATCGGGACTGGATTAGTGCTA: -0.102 z-score
TTAGGTATAGGGACTGGGTTAGTGCTA: -0.602 z-score
GACGGTCACGGTCTCGGGACGTGCTAG: -0.845 z-score
GACGAACTGAGCCTGGAGACGTGCTAG: -0.351 z-score
TTAGGTTTCGGTTTTGGTTAGTGCTAG: 12.2 z-score

A few entries again (set 1):
M176D: 4.97%
V137G: 1.03%
S80Y: 57.4%
T39L: 46.1%
V121A: 5.86%
